Measurements pooled from the literature.
Each numbered part is a random draw from the data of one study; scales do not carry over between parts. Substitutions count along the parent as printed.

Sample 1 — method: DHFR PCA, deep sequencing; medium: yeast; together with: (+)-ABA 0.032 µM; relative to: wild-type fitted maximum; reading: higher = stronger binding; endpoint: relative binding score
Target: ABI1, truncated, D143A, DHFR fusion (Arabidopsis thaliana)
Setting: methotrexate growth selection, single substitutions
Parent: PYL1, truncated, DHFR fusion (Arabidopsis thaliana); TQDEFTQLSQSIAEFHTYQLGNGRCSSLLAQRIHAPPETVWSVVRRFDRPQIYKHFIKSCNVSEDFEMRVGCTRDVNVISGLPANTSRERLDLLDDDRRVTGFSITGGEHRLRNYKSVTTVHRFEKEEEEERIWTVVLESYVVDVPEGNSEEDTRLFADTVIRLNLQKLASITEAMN; partner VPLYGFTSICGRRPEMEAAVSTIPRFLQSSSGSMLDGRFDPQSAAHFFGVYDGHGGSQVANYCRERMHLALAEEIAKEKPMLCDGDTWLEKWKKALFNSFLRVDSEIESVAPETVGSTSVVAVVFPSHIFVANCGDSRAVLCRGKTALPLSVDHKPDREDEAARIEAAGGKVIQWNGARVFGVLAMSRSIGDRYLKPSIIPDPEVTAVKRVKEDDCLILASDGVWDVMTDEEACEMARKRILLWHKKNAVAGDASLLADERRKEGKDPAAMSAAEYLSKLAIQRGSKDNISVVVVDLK
T17S: 17.4%
R113Y: 1.38%
R69N: 7.47%
P146D: 3.34%
T135F: -5.77%
E109A: 1.94%
E129H: 27.6%

Sample 2 — method: RNA Bind-n-Seq; form: RNA; medium: in vitro; tested at: not given; relative to: input RNA pool; reading: higher = stronger binding; endpoint: bound/input enrichment
Target: RING finger protein unkempt homolog, zinc fingers 1-6, GST-SBP tag (UNK, Homo sapiens, UniProt Q9C0B0, residues 30-357)
UniProt Q9C0B0, sequence (30-357, looked up): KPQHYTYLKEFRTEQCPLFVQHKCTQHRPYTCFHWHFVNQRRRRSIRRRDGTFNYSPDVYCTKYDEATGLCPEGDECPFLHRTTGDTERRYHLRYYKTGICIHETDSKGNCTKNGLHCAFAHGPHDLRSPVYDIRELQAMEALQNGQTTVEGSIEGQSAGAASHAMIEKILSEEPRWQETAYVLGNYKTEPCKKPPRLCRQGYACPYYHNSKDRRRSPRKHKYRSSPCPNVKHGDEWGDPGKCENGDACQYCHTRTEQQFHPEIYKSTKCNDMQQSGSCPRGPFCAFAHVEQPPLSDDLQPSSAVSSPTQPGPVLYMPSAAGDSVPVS
Setting: RNA with constant flanks, human and mouse sites, ends assumed
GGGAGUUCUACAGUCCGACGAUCGUGUUCUGUUUUAUUUUGUUUUUUCACUUAUUCCUCAUAACAGUUUGUGAAACCGGUAUGUUAGCCCUUUUAUGAAUUGGCCAGAGAGGAUGAGUGGUCGGCCUAGGUCAUAUGUCUAGGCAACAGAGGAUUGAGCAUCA: 0.456 ratio
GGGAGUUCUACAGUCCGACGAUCCAAGGCAGCCAGACUGCAUUUAGCCCAGAGUCCUUAUUUUAUGUUGUUUGGAAGAUUAUGCCAAACUUUAGGGGCUAUCAACAGCAGGACGCCCAUGAAUUCAUGCGCUACCUUUUGGACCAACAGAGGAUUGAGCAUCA: 0.338 ratio
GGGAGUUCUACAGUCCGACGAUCGAUCAGAUUUCAACCUGGGACUGGAUUACAGAGGAUUGUUUCUAAUAACAACAUCAAUAUUCUAGAAGUCCCUGACAGCCUAGAAAUAAGCUGUUUGUCUUCUAUAAAGCAUUGCUAUAGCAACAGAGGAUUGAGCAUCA: 0.123 ratio
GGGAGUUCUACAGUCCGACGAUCCCCCAGCCGGGCACUACCGCCAUGACGAACGUGUACUCCUUGGAUGGGAUCCUGGUGUUUGGUUUGCUCUUUGUUUGCACCUGUGCCUACUUCAAGAAAGUACCUCGUCUCAAAACCUGGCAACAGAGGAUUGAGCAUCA: 0.122 ratio
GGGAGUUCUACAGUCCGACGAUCAAGCUGCUAUUUGAAACGAGAGAUAUAAGUCUAAUUAAACAGUAUGUUCAGCGACAAUGUAUGAAGCUUCUGGAAGGAAAGGCCAGCAUACAAGACUUUAUCUUUGCCAAGGAAUACAGACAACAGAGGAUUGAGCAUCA: 0.319 ratio
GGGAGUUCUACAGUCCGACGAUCAAGCAACACUAAGCAUUCAUAAGUUAACCCAUGGUAAAGAGUGUUUUUCUGAAACUUUUUUUUAGUAAGAUGGUUUUUCAGCAAAUGGCAUUCCCAAGAUAAAGCUGUUGUGCUUUAACUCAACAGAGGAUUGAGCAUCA: 0.123 ratio
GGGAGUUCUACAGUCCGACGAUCGGAGAUGGUCCUAUGUGUCGCCCAGAAAUUGUGUUACCAGGAGAAGACACACAUCCCUUCUUAGAGUUUAAAGGGUCACGACAUCCCUGCAUUACAAAGACUUUUUUUGGAGACGAUUUUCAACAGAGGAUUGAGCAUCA: 0.716 ratio
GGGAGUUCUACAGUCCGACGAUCUACUGCUGGUCCUGUACCAGAAACAUUUUCUUUUAUUGUUACUUGCUUUUUAAACUUUGUUUAGCCACUUAAAAUCUGCUUAUGGCACAAUUUGCCUCAAAAUCCAUUCCAAGUUGUAUACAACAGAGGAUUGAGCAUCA: 3 ratio
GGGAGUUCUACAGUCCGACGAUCAUUCCACUUCAGACACCCCAUAAACUUGUAGAUACUGGCAGGGCUGCUAAAUUAAUACAGAGAGCUGAGGAAAUGAAGAGCGGCCUGAAAGAUUUCAAAACCUUUUUGACAAAUGAUCAACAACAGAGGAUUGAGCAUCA: 0.323 ratio

Sample 3 — target: CCND2, cyclin fold, Cln2 fusion (human); method: yeast growth competition, sequencing; medium: yeast; setting: weak parent motif; relative to: not given; reading: higher = stronger binding; endpoint: normalised enrichment score
Parent: NPAT docking peptide (human); PCHRRVLCFDSTT
PCHRRVLCFDSAT [T12A]: 0.163
PAHRRVLCFDSTT [C2A]: 0.145
PCHRKVLCLDSTT [R5K F9L]: 0.325
PCHRRVLAFDSTT [C8A]: 0.0353
PCHRRVACFDSTT [L7A]: -0.203
ACHRRVLCFDSTT [P1A]: -0.0366
PCHRRVLCFDSTA [T13A]: -0.187

Other studies, line by line
PhoQ, residues 284 288 289 292 302 303 GTAMQF — fold induction (PhoP, residues 12 14 15 18 19 NIMAP (Escherichia coli, UniProt P23836); Sort-seq, measured: YFP reporter; E. coli; PhoQ-PhoP variant library, together with: 10 µM Mg2+; relative to: high Mg2+ state, higher = stronger signaling): 0.475
